Results from different studies.
Each numbered part is a random draw from the data of one study; scales do not carry over between parts.

Set 1
Target: Replicase polyprotein 1ab, nsp13 helicase (rep, Severe acute respiratory syndrome coronavirus 2, UniProt P0DTD1)
Mode: inhibitor
Tested at: 20 µM
Measurement: inhibition
SMILES = CC(C)Oc1ccc2c(=O)c(-c3ccccc3)coc2c1; value = 6.12%
SMILES = Cn1cnc(N)c2ncnc1-2; value = 6.61%
SMILES = Nc1ccn(C[C@@H](CO)OCP(=O)(O)O)c(=O)n1; value = 6.71%
SMILES = COC(=O)C[C@](O)(CCC(C)(C)O)C(=O)O[C@@H]1C(OC)=C[C@]23CCCN2CCc2cc4c(cc2[C@H]13)OCO4; value = -2.26%
SMILES = N#C/C(=C\c1cccn1S(=O)(=O)c1cccc([N+](=O)[O-])c1)S(=O)(=O)c1ccc(F)cc1; value = 8.07%
SMILES = CC(C)c1nc(N(C)S(C)(=O)=O)nc(-c2ccc(F)cc2)c1/C=C/[C@@H](O)C[C@@H](O)CC(=O)O; value = 9.25%
SMILES = CCCNS(=O)(=O)Nc1ncnc(OCCOc2ncc(Br)cn2)c1-c1ccc(Br)cc1; value = 1.32%
SMILES = C[C@]12CCC(=O)C[C@@H]1CC[C@@H]1[C@@H]2CC[C@]2(C)C=CC[C@@H]12; value = 2.31%
SMILES = Nc1nc2[nH]cc(CCc3ccc(C(=O)N[C@@H](CCC(=O)O)C(=O)O)cc3)c2c(=O)[nH]1; value = 1.93%
SMILES = FC(F)(F)c1ccc(/C=C/c2nc(COc3ccc(CCCCn4ccnn4)cc3)co2)cc1; value = 4.95%
SMILES = COc1ccc(CNC(=O)Nc2ncc([N+](=O)[O-])s2)cc1; value = 9.66%
SMILES = C[C@H](CCC(=O)O)[C@H]1CC[C@H]2[C@@H]3C[C@H](O)[C@@H]4C[C@H](O)CC[C@]4(C)[C@H]3CC[C@]12C; value = 5.92%
SMILES = COC(=O)/C=C/c1cccc(N(Cc2ccc(-c3ccc(N(C)C)cc3)cc2)C(=O)C2CCCCC2)c1; value = 2.18%
SMILES = CCN(CC)CCCCNc1ncc2cc(-c3cc(OC)cc(OC)c3)c(NC(=O)NC(C)(C)C)nc2n1; value = 4.9%
SMILES = Cc1cc(CN)cc(C)c1NC(=O)c1ccc(-c2cc(Cl)ccc2Cl)o1; value = 10.8%
SMILES = Cc1nn(C)c2c1C(c1ccc(C(F)(F)F)cc1)C(C#N)=C(N)O2 (centres unmarked); value = -9.83%
SMILES = CN(C)C(=O)Oc1cccc([N+](C)(C)C)c1; value = 3.72%
SMILES = Nc1nc(NCCNc2ncc(-n3ccnc3)c(-c3ccc(Cl)cc3Cl)n2)ccc1[N+](=O)[O-]; value = -1.29%
SMILES = COC(=O)c1c(-c2cc(OC)c(OC)c(OC)c2)c2ccnc(OCc3ncccn3)c2c(=O)n1Cc1ccnc(C)c1; value = 4.62%
SMILES = COc1ccc(CCC(=O)Nc2nc3ccc(Cl)cc3s2)cc1OC; value = 0.82%
SMILES = Clc1ccc(N2CCN(Cc3c[nH]c4ncccc34)CC2)cc1; value = 2.2%
SMILES = NC(=O)c1cccnc1; value = -1.22%
SMILES = C#C[C@]1(O)CC[C@H]2[C@@H]3CCc4cc(OC)ccc4[C@H]3CC[C@@]21C; value = 7.64%
SMILES = CCCCCCCCN=c1ccn(CCCCCCCCCCn2ccc(=NCCCCCCCC)cc2)cc1; value = 90%
SMILES = O=C(NCc1ccncc1)C12CC3CC(C1)CC(c1ccc(Cl)cc1)(C3)C2; value = -2.15%

Set 2
Target: RNA binding protein fox-1 homolog 2, RRM domain, GST-SBP tag (RBFOX2, Homo sapiens, UniProt O43251-10, residues 100-194)
Technique: RNA Bind-n-Seq
Form: RNA
Sample: in vitro
Tested at: 365 nM
Notes: natural RNA segment, single round, ends assumed
Relative to: no-protein control
Reading: higher = stronger binding
Measurement: RBNS enrichment (R)
Target sequence (chain): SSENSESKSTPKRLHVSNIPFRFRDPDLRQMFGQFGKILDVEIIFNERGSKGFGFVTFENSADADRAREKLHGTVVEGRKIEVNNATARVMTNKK
Oligonucleotide = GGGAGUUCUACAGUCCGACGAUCGCACCCUUAUCCCAGUUAUAAGACAGUCAAAAUGACUAUUUCCUAAAUAUUGUGAGUGUAUGAAAUGUGAAAUUAAAGCAAAAACUGGAGACUUUUAAUGUAUUUCUUUAUGGAAUUCUCGGGUGCCAA; value = 1.07
Oligonucleotide = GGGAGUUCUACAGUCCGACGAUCCACUCAGCCCACAUACGGCAUUCUUCCCAUCCCACAGUCUUAGAGCCAGAUGAGGCUAACAAGACCACAGUAGCCCCCUUCCCAGGUACCACACUGUCCCUGGAGAUCCCUGGAAUUCUCGGGUGCCAA; value = 0.808
Oligonucleotide = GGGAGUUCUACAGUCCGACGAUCCAGAUAGCCUUUUAUCUGUGGAUGACUGAUGUUACUAUCUUUAUAUUUGACUUUGUAUGUCAGUUCCCUGGUUUUUUUGAUAUUGCAUCAUAGGACCUCUGGCAUUUUAGUGGAAUUCUCGGGUGCCAA; value = 0.363
Oligonucleotide = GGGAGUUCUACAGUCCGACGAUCAUGCCAACAAGAAUGCAUUGAUAUUGUGAACAUUUGUGAUAUAUGUAUUAAUAAAUAGAGCAAUUACAAGCAGCUGUGUUCUGGUUCUGUUCUUUGGUUCUUAUGAAAGUUGGAAUUCUCGGGUGCCAA; value = 0.437
Oligonucleotide = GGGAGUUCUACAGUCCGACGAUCGUAUCUCAAGAUAUUCAGGUGGCCAGAAGAGCUUGUCAGCAAGAGGAGGACAGAAUUCUCCCAGCGUUAACACAAAAUCCAUGGGCAGUAUGAUGGCAGGUCCUCUGUUGUGGAAUUCUCGGGUGCCAA; value = 0.488
Oligonucleotide = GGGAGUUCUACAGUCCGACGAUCGACAAUGGGAACAUUGCUGAAGAACUGAGCAUUCUCAAAUGGAACACAGACAGUGUAGAAGAAUUCCUGAGUGAAAAGUUGGAACGCAUAUAAAUCUUGCUUAAAUUUUGUGGAAUUCUCGGGUGCCAA; value = 0.526
Oligonucleotide = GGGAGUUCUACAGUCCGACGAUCACACACUGGGCCAGAGAGGCCUGCCUUCUGCCUGCUCUCCUGCACUGACCCUUUGGAGGGGGUCUCUGUGUGCUGAAGCUAACUCAAGAUGGAAAGUGAAACCACAUGUGUGGAAUUCUCGGGUGCCAA; value = 0.428
Oligonucleotide = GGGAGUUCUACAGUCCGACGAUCGGAGCAGCAGGCCUGGGGCAAGGAAGGAAGGGGGUGCACACAGGAGAAGAAACAUUCCAAAAUCAGGGCCUCCCUGUUCUUUCCUCCCCAUCCCUAGCUCCUGCAAGAGAUGGAAUUCUCGGGUGCCAA; value = 0.281

Set 3
Target: Sal-like protein 4, full length isoform B (SALL4, Homo sapiens, UniProt Q9UJQ4-2, residues 1-616)
Technique: universal PBM
Form: double-stranded DNA, one strand shown
Sample: in vitro
Tested at: not given
Notes: 8-mer, flanks averaged, mean of replicates
Reading: higher = stronger binding
Measurement: E-score
Target sequence (chain): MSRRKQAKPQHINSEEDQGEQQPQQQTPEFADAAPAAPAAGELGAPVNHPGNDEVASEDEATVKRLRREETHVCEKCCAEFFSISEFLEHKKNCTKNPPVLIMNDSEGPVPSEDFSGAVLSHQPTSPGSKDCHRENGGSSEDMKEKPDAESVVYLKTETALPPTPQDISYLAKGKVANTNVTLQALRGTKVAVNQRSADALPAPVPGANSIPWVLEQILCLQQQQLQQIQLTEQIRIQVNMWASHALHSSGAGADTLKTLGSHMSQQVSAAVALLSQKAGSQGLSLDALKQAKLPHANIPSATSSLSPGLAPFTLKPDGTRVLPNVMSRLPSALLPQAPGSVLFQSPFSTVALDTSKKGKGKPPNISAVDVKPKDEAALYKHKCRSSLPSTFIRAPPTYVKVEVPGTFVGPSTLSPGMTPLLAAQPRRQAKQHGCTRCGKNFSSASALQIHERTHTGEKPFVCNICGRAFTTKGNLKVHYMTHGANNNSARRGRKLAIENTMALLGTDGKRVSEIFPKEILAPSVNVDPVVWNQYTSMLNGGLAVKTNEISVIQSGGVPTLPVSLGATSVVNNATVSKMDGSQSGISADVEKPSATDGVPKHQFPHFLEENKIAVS
Oligonucleotide = CACGAACA; value = 0.128
Oligonucleotide = GAGTGAGC; value = -0.15
Oligonucleotide = CGTCCGGA; value = -0.19
Oligonucleotide = CTAAAAAG; value = 0.135
Oligonucleotide = AACCAAAG; value = 0.0998
Oligonucleotide = ACGGAGCT; value = -0.182
Oligonucleotide = TACTATCA; value = 0.133
Oligonucleotide = ATGGTCGG; value = -0.0762

Set 4
Target: Histone acetyltransferase KAT6A, winged helix 1, GST fusion (KAT6A, Homo sapiens, UniProt Q92794, residues 1-85)
Technique: protein binding microarray
Form: double-stranded DNA, one strand shown
Sample: in vitro
Tested at: not given
Notes: 8-mer, flanks averaged, mean of 2 arrays, mostly near background
Relative to: not given
Reading: higher = stronger binding
Measurement: E-score
Construct (chain): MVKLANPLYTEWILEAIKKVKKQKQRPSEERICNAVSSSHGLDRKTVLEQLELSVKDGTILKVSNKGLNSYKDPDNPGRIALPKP
Oligonucleotide = TATTGTCA; value = -0.22
Oligonucleotide = GAAGATGC; value = 0.0843
Oligonucleotide = TACTAGCA; value = -0.0918
Oligonucleotide = CGCAATAC; value = 0.2
Oligonucleotide = GCACTGTA; value = 0.00451
Oligonucleotide = ACCGTTCC; value = 0.255
Oligonucleotide = CACCTGGG; value = -0.286
Oligonucleotide = CATGGTCG; value = 0.0118

Mixed results
SMILES = CCCCNc1ccc(C(=O)OCCN(C)C)cc1; cell line = HEK-293T; assay = pseudovirus infection, FDA-approved drug library screen; system = VSV pseudotyped with SARS-CoV-2 spike; conditions = 10 µM, 16 h; how to read = relative to: vehicle-treated; measurement = GFP-positive cells; value = 72.7%

A few entries again (set 4):
Oligonucleotide = ACCGTTCC; value = 0.255
Oligonucleotide = CATGGTCG; value = 0.0118
Oligonucleotide = CGCAATAC; value = 0.2
Oligonucleotide = GAAGATGC; value = 0.0843
Oligonucleotide = CACCTGGG; value = -0.286
Oligonucleotide = TACTAGCA; value = -0.0918
